Measurements gathered from unrelated publications.
Each line is one published result; not all experiments were run side by side.
B1: mel-26 (Caenorhabditis elegans, UniProt Q94420); sequence looked up; chain MEPRIDGGVFIGGIGNSGNEMCSNGVPALGVSSQTEIKVEKVQHTWTVKNFSHCYQEYLENFVYLQRGDEQLTWSIKIYPKGNGENNKDFVFLCLNRVINNNVKAGKIGFKSQFKLRTAENKDIEMRIHPNPSHSDYVSYIKRDVLFPQIMPRDMIIVNVEIDVAVETITTTNEPIQFEPTNSEQQLIEDYQRLFSQELLCDFAINVNGKIIRAHKAVLAARSPVFNAMLTHQDTDEAKSSMMYINDMDYDVIYEMVYYIYCGRCNKDITDMATALLIAADKYRLEELKSHCEKYLVENINIENACSLLIIGDLYSAPKLRKRAVTYILARPKNVTGTPGWEDILKGHPNLITDIFSQIDRQSSTGATSSVSNLPGVPMDIPGITGNIVPPPSGL
B2: UGT1A9 (Homo sapiens, UniProt O60656); chain GKLLVVPMDGSHWFTMRSVVEKLILRGHEVVVVMPEVSWQLGRSLNCTVKTYSTSYTLEDLDREFKAFAHAQWKAQVRSIYSLLMGSYNDIFDLFFSNCRSLFKDKKLVEYLKESSFDAVFLDPFDNCGLIVAKYFSLPSVVFARGILCHYLEEGAQCPAPLSYVPRILLGFSDAMTFKERVRNHIMHLEEHLLCHRFFKNALEIASEILQTPVTEYDLYSHTSIWLLRTDFVLDYPKPVMPNMIFIGGINCHQGKPLPMEFEAYINASGEHGIVVFSLGSMVSEIPEKKAMAIADALGKIPQTVLWRYTGTRPSNLANNTILVKWLPQNDLLGHPMTRAFITHAGSHGVYESICNGVPMVMMPLFGDQMDNAKRMETKGAGVTLNVLEMTSEDLENALKAVINDKSYKENIMRLSSLHKDRPVEPLDLAVFWVEFVMRHKGAPHLRPAAHDLTWYQYHSLDVIGFLLAVVLTVAFITFKCCAYGYRKCLGKKGRVKKAHKSKTH
B3: FGF6 (Homo sapiens, UniProt P10767); chain SPAGTRANNTLLDSRGWGTLLSRSRAGLAGEIAGVNWESGYLVGIKRQRRLYCNVGIGFHLQVLPDGRISGTHEENPYSLLEISTVERGVVSLFGVRSALFVAMNSKGRLYATPSFQEECKFRETLLPNNYNAYESDLYQGTYIALSKYGRVKRGSKVSPIMTVTHFLPRI
Chain of UniProt P08253 (whole entry, unmodified, looked up): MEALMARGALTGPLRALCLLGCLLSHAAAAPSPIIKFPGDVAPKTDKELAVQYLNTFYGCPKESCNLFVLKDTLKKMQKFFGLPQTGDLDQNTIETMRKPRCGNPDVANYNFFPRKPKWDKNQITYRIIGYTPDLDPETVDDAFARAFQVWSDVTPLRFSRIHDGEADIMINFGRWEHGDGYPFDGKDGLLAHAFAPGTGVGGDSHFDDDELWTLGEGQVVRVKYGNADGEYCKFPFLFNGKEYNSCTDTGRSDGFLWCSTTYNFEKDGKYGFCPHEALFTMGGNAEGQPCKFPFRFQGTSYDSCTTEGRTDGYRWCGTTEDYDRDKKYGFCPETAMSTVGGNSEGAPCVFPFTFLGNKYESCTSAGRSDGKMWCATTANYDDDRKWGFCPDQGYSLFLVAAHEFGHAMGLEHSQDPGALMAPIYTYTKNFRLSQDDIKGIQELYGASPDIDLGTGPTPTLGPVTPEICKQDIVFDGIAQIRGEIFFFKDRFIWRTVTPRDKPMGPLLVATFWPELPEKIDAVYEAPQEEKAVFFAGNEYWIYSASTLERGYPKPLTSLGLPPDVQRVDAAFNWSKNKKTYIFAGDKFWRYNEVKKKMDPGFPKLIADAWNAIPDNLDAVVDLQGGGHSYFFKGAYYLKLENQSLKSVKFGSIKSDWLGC
Chain of UniProt P53667 (whole entry, looked up): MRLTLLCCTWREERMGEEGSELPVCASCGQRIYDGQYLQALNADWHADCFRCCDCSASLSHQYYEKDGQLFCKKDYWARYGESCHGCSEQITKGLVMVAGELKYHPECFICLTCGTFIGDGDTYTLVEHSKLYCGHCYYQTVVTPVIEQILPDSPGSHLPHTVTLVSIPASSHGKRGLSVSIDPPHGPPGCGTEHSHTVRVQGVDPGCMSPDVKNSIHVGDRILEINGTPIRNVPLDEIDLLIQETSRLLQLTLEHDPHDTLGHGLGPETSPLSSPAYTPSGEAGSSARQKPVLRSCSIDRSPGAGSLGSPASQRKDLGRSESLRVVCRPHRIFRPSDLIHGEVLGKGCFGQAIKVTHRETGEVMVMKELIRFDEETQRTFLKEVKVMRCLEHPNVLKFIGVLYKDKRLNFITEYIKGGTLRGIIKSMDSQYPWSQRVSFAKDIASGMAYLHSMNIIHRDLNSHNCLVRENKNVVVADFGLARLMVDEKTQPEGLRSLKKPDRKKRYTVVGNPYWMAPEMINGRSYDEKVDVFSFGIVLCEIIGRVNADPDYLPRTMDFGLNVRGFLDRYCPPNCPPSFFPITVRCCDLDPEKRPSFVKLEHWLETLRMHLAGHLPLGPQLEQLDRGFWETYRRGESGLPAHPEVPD
Chain of UniProt A2AWT3 (whole entry, looked up): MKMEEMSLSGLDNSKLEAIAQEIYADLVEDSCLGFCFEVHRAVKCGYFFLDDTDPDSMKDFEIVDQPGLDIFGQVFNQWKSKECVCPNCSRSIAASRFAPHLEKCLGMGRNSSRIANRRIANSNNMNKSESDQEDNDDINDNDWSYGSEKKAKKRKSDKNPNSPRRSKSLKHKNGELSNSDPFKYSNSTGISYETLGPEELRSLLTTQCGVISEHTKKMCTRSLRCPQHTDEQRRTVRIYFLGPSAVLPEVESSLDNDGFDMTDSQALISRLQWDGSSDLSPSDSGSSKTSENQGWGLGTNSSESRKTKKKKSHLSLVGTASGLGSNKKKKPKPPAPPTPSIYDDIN
Chain of UniProt P34808 (whole entry, unmodified, looked up): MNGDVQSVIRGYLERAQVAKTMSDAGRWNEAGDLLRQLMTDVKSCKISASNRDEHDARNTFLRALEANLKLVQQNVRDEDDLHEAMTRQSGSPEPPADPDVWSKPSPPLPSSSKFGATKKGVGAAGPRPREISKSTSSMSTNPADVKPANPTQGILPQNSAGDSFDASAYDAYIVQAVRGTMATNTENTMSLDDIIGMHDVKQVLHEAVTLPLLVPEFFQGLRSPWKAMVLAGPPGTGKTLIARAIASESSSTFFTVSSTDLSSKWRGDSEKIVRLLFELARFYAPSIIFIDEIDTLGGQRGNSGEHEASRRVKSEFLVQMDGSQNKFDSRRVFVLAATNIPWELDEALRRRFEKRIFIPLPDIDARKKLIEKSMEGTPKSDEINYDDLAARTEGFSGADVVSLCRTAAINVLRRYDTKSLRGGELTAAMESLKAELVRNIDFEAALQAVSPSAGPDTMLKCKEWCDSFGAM
Chain of UniProt Q13873 (whole entry, looked up): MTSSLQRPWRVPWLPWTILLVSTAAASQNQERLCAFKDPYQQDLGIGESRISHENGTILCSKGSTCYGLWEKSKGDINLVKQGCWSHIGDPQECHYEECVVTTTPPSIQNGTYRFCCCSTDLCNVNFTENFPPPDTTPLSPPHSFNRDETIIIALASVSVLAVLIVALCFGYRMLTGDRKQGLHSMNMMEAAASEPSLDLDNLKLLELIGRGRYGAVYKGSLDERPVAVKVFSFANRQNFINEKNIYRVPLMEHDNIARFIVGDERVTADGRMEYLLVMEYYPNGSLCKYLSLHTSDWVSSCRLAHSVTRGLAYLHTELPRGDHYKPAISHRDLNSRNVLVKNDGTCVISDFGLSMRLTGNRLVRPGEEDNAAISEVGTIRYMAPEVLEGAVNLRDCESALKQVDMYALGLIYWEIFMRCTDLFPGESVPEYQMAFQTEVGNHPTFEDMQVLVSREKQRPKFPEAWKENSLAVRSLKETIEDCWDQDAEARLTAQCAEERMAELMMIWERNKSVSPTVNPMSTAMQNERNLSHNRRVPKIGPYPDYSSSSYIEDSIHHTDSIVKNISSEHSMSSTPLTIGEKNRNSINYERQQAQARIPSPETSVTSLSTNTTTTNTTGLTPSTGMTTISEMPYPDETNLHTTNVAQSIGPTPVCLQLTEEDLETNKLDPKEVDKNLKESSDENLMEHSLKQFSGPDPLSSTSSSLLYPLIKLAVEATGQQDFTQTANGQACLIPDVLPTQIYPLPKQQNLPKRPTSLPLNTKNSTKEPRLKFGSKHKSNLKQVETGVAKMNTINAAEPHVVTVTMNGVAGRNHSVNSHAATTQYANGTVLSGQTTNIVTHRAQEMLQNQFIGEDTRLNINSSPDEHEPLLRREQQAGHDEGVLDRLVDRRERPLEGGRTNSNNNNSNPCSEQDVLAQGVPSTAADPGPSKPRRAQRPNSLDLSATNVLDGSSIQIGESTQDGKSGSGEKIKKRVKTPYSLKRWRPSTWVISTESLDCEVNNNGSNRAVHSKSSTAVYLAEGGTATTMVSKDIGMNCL
Chain of UniProt P31266 (whole entry, unmodified, looked up): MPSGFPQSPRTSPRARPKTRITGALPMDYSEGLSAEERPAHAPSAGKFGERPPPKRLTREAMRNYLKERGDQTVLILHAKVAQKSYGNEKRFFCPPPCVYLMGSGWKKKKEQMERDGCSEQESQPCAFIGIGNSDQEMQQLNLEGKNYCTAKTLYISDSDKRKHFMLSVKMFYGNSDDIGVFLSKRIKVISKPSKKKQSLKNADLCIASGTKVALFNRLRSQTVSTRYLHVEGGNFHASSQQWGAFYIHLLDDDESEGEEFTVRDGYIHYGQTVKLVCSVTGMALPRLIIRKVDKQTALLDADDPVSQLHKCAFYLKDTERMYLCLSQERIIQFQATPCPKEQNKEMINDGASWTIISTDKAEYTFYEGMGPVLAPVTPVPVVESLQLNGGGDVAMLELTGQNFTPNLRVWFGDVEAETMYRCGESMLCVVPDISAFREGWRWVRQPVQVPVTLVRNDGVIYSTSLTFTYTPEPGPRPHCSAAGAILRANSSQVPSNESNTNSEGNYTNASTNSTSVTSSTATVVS
Chain of UniProt Q8CEG8 (whole entry, looked up): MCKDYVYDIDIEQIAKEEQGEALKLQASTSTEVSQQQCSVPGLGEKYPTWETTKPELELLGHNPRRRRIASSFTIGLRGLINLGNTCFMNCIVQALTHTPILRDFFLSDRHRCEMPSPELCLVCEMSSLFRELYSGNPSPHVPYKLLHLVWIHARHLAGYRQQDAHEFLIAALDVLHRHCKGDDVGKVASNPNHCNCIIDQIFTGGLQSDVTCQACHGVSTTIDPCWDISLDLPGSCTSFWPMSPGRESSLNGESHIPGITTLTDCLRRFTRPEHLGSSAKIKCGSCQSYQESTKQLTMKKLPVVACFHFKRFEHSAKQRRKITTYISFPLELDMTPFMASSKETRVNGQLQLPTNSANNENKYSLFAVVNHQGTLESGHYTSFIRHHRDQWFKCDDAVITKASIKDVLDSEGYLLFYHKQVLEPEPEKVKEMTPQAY

Molecule	tested on	assay	test system	setting	scale	measurement	result
E2F2 transactivation domain D410H (Homo sapiens)	RBL1 391-972 del601-779/del888-923 (Homo sapiens, UniProt P28749)	ITC	–	–	reference: wild-type E2F2 TD, higher = tighter binding	relative affinity	3 fold
B1 (mel-26)	mei-1 S113A, phosphorylated by MBK-2 (Caenorhabditis elegans, UniProt P34808)	far-Western	–	4 °C, denatured	–	binding	binds
BMPR2 (Homo sapiens, UniProt Q13873)	LIMK1 (Homo sapiens, UniProt P53667)	GST-cofilin phosphorylation	–	–	reference: LIMK1 alone, higher = more phosphorylation	relative kinase activity	0.45
F8 A2 subunit T657Y (human)	F8 A1 and A3C1C2 dimer, factor VIIIa Y1792T	FXa generation activity loss	–	1.5 nM, 23 °C	higher = faster decay	decay rate	0.13 min⁻¹
MMP2 fragment R252A/F297A (Homo sapiens)	COL1A1/COL1A2 denatured, gelatin (Homo sapiens)	DQ-gelatin fluorescence	–	10 nM, 25 °C	higher = faster hydrolysis	hydrolysis rate	0.14 RFU/s
B2 (UGT1A9)	COc1ccc(O)cc1	steady-state kinetics	–	pH 7.4, 37 °C	–	Vmax	0.00231 µmol/min/mg
B3 (FGF6)	FGFR3 isoform IIIc (unknown, UniProt Q61851)	cell proliferation, MTT	BaF3-FGFR3c	20 nM, 48 h, with: completely desulfated heparin 4.9 µg/mL	reference: FGF 1 with heparin, higher = more proliferation	cell proliferation	5%
TIMP2 N-terminal domain S4P/I35V/S68N/V71I/H97R	MMP2 (Homo sapiens, UniProt P08253)	fluorogenic substrate cleavage, inhibitor, enzyme inhibition assay	–	apparent	–	Ki	3.53 nM
fabF R127A/K128A/R206A (Escherichia coli)	acpP C12-acylated 1-78, C12 acyl on 4'-phosphopantetheine (Escherichia coli, UniProt P0A6A8)	holo-AcpP formation, HPLC	–	10 µM, with: malonyl-CoA	–	condensation rate	0.13 min⁻¹
Pcsk9 fragment (Mus musculus)	Ldlr (Mus musculus, UniProt P35951)	ELISA	plasma	CFA group	–	bound PCSK9	37.4 ng/mL
Usp27x (Mus musculus, UniProt Q8CEG8)	Atxn7l3 (Mus musculus, UniProt A2AWT3)	co-IP	mouse ES cells	Usp22 KO	reference: WT cells, higher = more association	relative co-precipitation	5 fold
VKKATATTTWMVPTAQ (L3MBTL3 55-70 (Homo sapiens, UniProt Q96JM7-2); sequence looked up)	Rbpj 53-474 (Mus musculus, UniProt P31266)	ITC	peptide	pH 6.5, 25 °C, NaCl 150 mM	–	ΔH	-8.9 kcal/mol
RANBP17 (Homo sapiens, UniProt Q9H2T7)	TCF3 (Homo sapiens, UniProt P15923)	luciferase reporter	HeLa	–	reference: E12/MyoD alone, higher = more activity	reporter activity	2.7 fold

Repeated from above:
Molecule	tested on	assay	test system	setting	scale	measurement	result
Pcsk9 fragment (Mus musculus)	Ldlr (Mus musculus, UniProt P35951)	ELISA	plasma	CFA group	–	bound PCSK9	37.4 ng/mL
Usp27x (Mus musculus, UniProt Q8CEG8)	Atxn7l3 (Mus musculus, UniProt A2AWT3)	co-IP	mouse ES cells	Usp22 KO	reference: WT cells, higher = more association	relative co-precipitation	5 fold
